Results of several laboratories.
Values joined by “and” are separate records of one study, mostly repeats; a detail may differ.
Target: Protein-tyrosine kinase 6 (PTK6, Homo sapiens, UniProt Q13882)

O=C(Cc1ccc(OCc2ccccc2)cc1)NC1(C(=O)O)CCN(C(=O)c2ccc(-c3cccc(Cl)c3)cc2)CC1  activity vs control (enzyme activity, inhibitor; 10 µM): 124%
N[C@H]1CC[C@H](Nc2nccc(-c3cccnc3Oc3ccc(NC(=O)NC4CC4)c4ccccc34)n2)CC1  log2 LFQ intensity (kinobead competition pulldown; HEK293/HCT116 lysate mixture; 10 µM, 1 h, 4 °C; lower = stronger competition): 21.6 and 20.4 and 19.8 and 21.5
Cc1cccc(O[C@H]2CCC[C@@H](C(C)CNCc3ccncc3)C2)c1 (relative stereo)  inhibition (enzyme activity, inhibitor; 1 µM): -2%
Cc1ccc(-c2c(/C=C(\C#N)C(=O)NC(C)C)n(CCCO)c3ncnc(N)c23)cc1  remaining binding (cell-free assay, competition with immobilised ligand; 1 µM): 78%
NC(=O)[C@@H](O)C[C@H]1CCc2sc3ncnc(O[C@H]4CC[C@H](N5CCOCC5)CC4)c3c21  inhibition (enzyme activity, inhibitor; 10 µM): 32%
CN1CCN(Cc2ccc(-c3ccc(CO[C@H]4CCC[C@@H]4NC(=O)c4cc(-c5cnn(C)c5)cnc4N)cc3)cc2)CC1  inhibition (enzyme activity, inhibitor; 0.1 µM): 3%
CCn1cc(C(=O)O)c(=O)c2c(N)c(F)c(NC3CCCCC3)cc21  inhibition (kinase activity; 0.1 µM, together with: ATP at Km): -5.7%
COCC12C(=O)NC3C4(C(OC)CC1O)C1CC5(O)C(OC)C(O)C(OC(C)=O)(C1C5OC(=O)c1ccccc1)C3(O)C(OC)C24 (stereo not shown)  remaining activity (kinase activity, inhibitor, ProQinase kinase profiling; 25 µM; reference: control): 97% and 113%
COc1cc(Nc2nc(C)cc(-c3cnn4nc(OC)ccc34)n2)cc(C(F)(F)F)c1  remaining binding (KINOMEscan; 1 µM, BRK; reference: DMSO): 100%
CNC(=O)C[C@H](Cc1ccc(C#N)cc1)NC(=O)c1cc(-c2ccc(CN[C@H](C)c3ccc(C)cc3)o2)ccc1Cl  activity vs control (enzyme activity, inhibitor; 1 µM): 105%
CNC1C[S+]2CC[S+]3CC[S+](C1)[Ru-4]321([N]=C=S)[n]2c3ccc(OC)cc3c3c4c(c5cc(F)c[n+]1c5c32)C(=O)NC4=O (stereo not shown)  remaining binding (KinomeScan; 0.1 µM; reference: untreated): 100%
C=CC(=O)Nc1cccc(-c2cnc3[nH]cc(C(=O)NC(C)(C)C)c3n2)c1  inhibition (enzyme activity, inhibitor; 0.1 µM): 2%
C=CC(=O)N1CCCC(n2c(=O)c3ncccc3n(Cc3ccc(Oc4ccccc4)cc3)c2=O)C1 (stereo not shown)  remaining binding (cell-free assay, competition with immobilised ligand; 1 µM): 98%
CNC(=O)C1CCN(c2cc(C)c(F)cc2NC(=O)c2ccc(-c3cc(O)ccc3C)c(C)c2)CC1  remaining binding (binding, competition with immobilised ligand; 1 µM): 86%
COc1c(Cl)cccc1Nc1c(-c2ccncc2C#C[C@@]2(C)CCCN2C(=O)/C=C/CN(C)C)[nH]c2c1C(=O)NCC2  remaining binding (binding, competition with immobilised ligand; 3 µM): 91%
C=CC(=O)N1Cc2nc(-c3cc(-c4cc(Cl)cnc4Cl)c(F)cc3F)n(-c3ccncn3)c2C1  inhibition (cell-free assay, inhibitor; 1 µM): -1.7%

A few entries again:
CNC(=O)C[C@H](Cc1ccc(C#N)cc1)NC(=O)c1cc(-c2ccc(CN[C@H](C)c3ccc(C)cc3)o2)ccc1Cl  activity vs control (enzyme activity, inhibitor; 1 µM): 105%
Cc1cccc(O[C@H]2CCC[C@@H](C(C)CNCc3ccncc3)C2)c1 (relative stereo)  inhibition (enzyme activity, inhibitor; 1 µM): -2%
